Measurements of several laboratories.
Each line is one published result; not all experiments were run side by side. “And” joins repeats or separate records; there may be more than shown. Numbers after ± are the reported error. In brackets after ≈: the same amount, converted by molar mass.

| SMILES | test | test system | setting | scale | endpoint | value |
| --- | --- | --- | --- | --- | --- | --- |
| COc1cccc(OC)c1-c1cc(C(=O)NC2(C(=O)O)C3CC4CC(C3)CC2C4)nn1-c1ccc(C(=O)NCCNC(=O)[C@H](CCCCNC(=O)[C@H](CC(C)C)NC(=O)C2OC2C(=O)O)NC(=O)CN2CCN(CC(=O)[O-])CCN(CC(=O)[O-])CCN(CC(=O)[O-])CC2)cc1C(C)C.[177Lu+3] (mixture of isomers) |  | mouse, HT-29 xenograft | 24 h post injection, biodistribution | reference: tumour over brain uptake | tumour-to-brain ratio | 88.6 |
| C(=N\Nc1nnc(N/N=C/c2ccccc2)c2ccccc12)/c1ccccc1 | haemolysis | human | 10 mM, 45 min |  | haemolysis | 13.8% |
| Cc1cc(-c2ccc(C(=O)[C@@H]3CCCC[C@H]3C(=O)Nc3cnn4c3C(=O)NCC4)cc2)[nH]n1 |  | human, faeces | oral, 200 mg, 240-264 h, discharged subjects excluded | reference: dose | recovery of radioactivity per interval | 0.18% |
| CC[C@H](C)[C@H](NC(=O)[C@H](Cc1ccc(O)cc1)NC(=O)[C@@H](NC(=O)[C@H](CCCNC(=N)N)NC(=O)[C@@H](N)CC(=O)O)C(C)C)C(=O)N[C@@H](Cc1c[nH]cn1)C(=O)N1CCC[C@H]1C(=O)O | LC-MS/MS | Sprague-Dawley rats, plasma | subcutaneous, 10 mg/kg/day, day 27 |  | elimination rate constant | 0.043 min⁻¹ |
| Cc1[nH]c(=O)c(CNC(=O)c2cc(Cl)c3c(c2C)O[C@@](C)([C@H]2CC[C@H](N(C)C)CC2)O3)c(C)c1O | radiochromatography | human, urine | oral, 200 mg | reference: dose | urinary excretion | 1.5% and 0.2% and 0.8% and 0.6% |
| O=C(NS(=O)(=O)c1cccs1)c1cc2ccccc2n1Cc1ccc(Br)c2ccccc12 |  | Sprague-Dawley rat, male, plasma | oral, 20 mg/kg |  | MRT(0-inf) | 2.77 h |
| CCC(=O)N(C)c1ccc(Cl)c(Cl)c1 |  | female C57BL/6 mice | subcutaneous, 2 mg/kg, 2 h |  | plasma concentration | 29.6 ng/mL and 20.7 ng/mL |
| CC[C@H](C)[C@@H]1NC(=O)[C@H](Cc2ccc(O)cc2)NC(=O)CCCSC[C@@H](C(=O)N(CC(=O)N[C@@H](CC(C)C)C(=O)NCC(N)=O)Cc2ccc(F)cc2)NC(=O)[C@H](CC(N)=O)NC(=O)[C@H](CCC(N)=O)NC1=O |  | human | intranasal, 200 µg repeated doses |  | drug-related dry mouth | 50% |
| CC[C@H](C)[C@@H](C(=O)N[C@@H](CC(C)C)C(=O)N[C@@H](CO)C(=O)N[C@@H](CO)C(=O)N[C@H](C(=O)N[C@@H](CCC(=O)O)C(=O)N[C@H](C(=O)NCC(=O)N[C@@H](CO)C(=O)N[C@@H](CC(N)=O)C(=O)N[C@H](C(=O)N1C[C@H](O)C[C@H]1C(N)=O)[C@@H](C)O)C(C)C)[C@@H](C)O)N(C)C(=O)[C@H](C)NC(=O)CN(C)C(=O)[C@H](Cc1ccccc1)NC(=O)[C@H](CO)NC(=O)[C@H](CO)NC(=O)[C@H](CCCNC(=N)N)NC(=O)[C@H](CCC(N)=O)NC(=O)[C@H](CC(C)C)NC(=O)[C@H](Cc1ccccc1)NC(=O)[C@H](CCCC(=O)O)NC(=O)[C@H](C)NC(=O)[C@H](CC(C)C)NC(=O)[C@H](CCCNC(=N)N)NC(=O)[C@H](CCC(=O)O)NC(=O)[C@@H](NC(=O)[C@H](C)NC(=O)[C@@H]1CCCCNC(=O)C[C@H](NC(=O)[C@H](CCCNC(=N)N)NC(=O)CC[C@H](NC(=O)CCCCCCCCCCCCCCCCCCC(=O)O)C(=O)O)C(=O)NCC(=O)N[C@@H]([C@@H](C)O)C(=O)N[C@@H](C)C(=O)N[C@@H]([C@@H](C)O)C(=O)N1)[C@@H](C)O | RP-UPLC | formulation, phosphate buffer, propylene glycol, mannitol, NaCl | 1 weeks, pH 6.1, 40 °C |  | chemical degradation | ≤ 3% |
| CN1CCC[C@]1(C)/C=C/S(=O)(=O)NC(=O)Nc1c2c(cc3c1CCC3)CCC2 |  | human | oral, 12.5 mg twice daily, 14 days |  | respiratory, thoracic, mediastinal adverse events | 0% |
| CC1(F)CN(C(=O)Cn2c(=O)c(C(=O)NCc3ccc(Cl)cc3)cc3nc(N4CCN(CCN)C4=O)cnc32)C1 |  | aqueous buffer | 24 h, pH 7.4, 37 °C |  | thermodynamic solubility | 6.64 µM (≈ 3.79 µg/mL) |
| CN(O)C(=O)CCC(=O)NCCCN(CCCCN(CCCNC(=O)CCC(=O)N(C)O)C(=O)CCC(=O)N(C)O)C(=O)CCC(=O)N(C)O.[89Zr] |  | mouse plasma | 1 d, 37 °C |  | intact complex | 99.2 ± 0.8% |
| CCc1cnc(NC(=O)c2cc(S(=O)(=O)N3CCOCC3)ccc2N(C)C2CCCC2)s1 |  | mouse, serum | 10 mg/kg, 3 doses |  | Glucose | 240 mg/dL |
| O=C([O-])CN1CCN(CC(=O)[O-])CCN(CC(=O)NCC2CCC(C(=O)NC(Cc3ccc4ccccc4c3)C(=O)NCCCCC(NC(=O)NC(CCC(=O)O)C(=O)O)C(=O)O)CC2)CCN(CC(=O)[O-])CC1.[68Ga+3] (stereo not drawn) | micro-PET/CT | mouse 22Rv1 xenograft, tumour | 1 h post-injection |  | mean tumour uptake | 5.4 ± 0.22 %ID/g |
| CCCCN1C(=O)c2cccc3c(NCCCCCN4CCOCC4)ccc(c23)C1=O |  | ethyl acetate |  |  | molar extinction coefficient | 5380 M⁻¹ cm⁻¹ |
| CN(CCNc1ccc2ncc(-c3ccc(C(N)=O)cc3)n2n1)C(=O)OC(C)(C)C |  | mouse, SNL model, plasma | oral, 60 mg/kg, 120 min |  | free drug concentration | 1250 nM |
| C=C(NC(=O)c1csc(-c2nc3c(cc2O)-c2nc(cs2)C(=O)NC(C(C)O)C(=O)NC(=C(C)OC)c2nc(cs2)C(=O)NC2c4nc(cs4)C(=O)NC(COC(=O)c4c5c6c(cccc6n4O)COC(=O)C(OC4CC(C)(O)C(N(C)C)C(C)O4)C2OC5)c2nc-3cs2)n1)C(N)=O (stereo not drawn) |  | ICR mice, Streptococcus pneumoniae ATCC 49169 infected, immunocompromised, blood | intravenous, 32 mg/kg/day twice daily |  | AUC(0-t) | 1730 ng·h/mL |
| CCCC[C@H](OC(C)=O)c1ccccc1C(=O)O |  | beagle dogs, both sexes, whole blood | intravenous, 0.5 mg/kg single dose |  | clearance | 20.5 ± 2.13 mL/min/kg |
| O=C(Nc1cnccc1-c1ccc([18F])cc1)c1ccnc(NC(=O)C2CC2)c1 | ex vivo gamma counting | FVB/NJ mice, both sexes, brain stem | intravenous, 120 min |  | mean SUV | 0.06 |
| C=CC(=O)N1CCCC(n2c(=O)c3ncccc3n(Cc3ccc(Oc4ccccc4)cc3)c2=O)C1 (stereo not drawn) |  | BALB/c mice, male, plasma | oral, 200 mg/kg, 1 h |  | plasma concentration | 19600 ng/mL |
| CCCCN1C(=O)c2cccc3c(NCCCN4CCOCC4)ccc(c23)C1=O |  | DMF |  |  | molar extinction coefficient | 4900 M⁻¹ cm⁻¹ |
| [123I]c1ccc2nc(-c3ccc(-n4ccnn4)nc3)cn2c1 |  | male Wistar rat, muscle | intravenous, 4 MBq, 1 h |  | tracer uptake | 0.045 %ID/g |
| CCN(CC)c1ccc2c(c1)O[B-]1(c3ccccc3OC)OC(=O)C(c3ccccc3)=N[N+]1=C2 (stereo not drawn) |  | toluene |  |  | molar absorption coefficient | 59000 M⁻¹ cm⁻¹ |
| COCC1CN(C2CCN(c3cc(OC)c(Nc4ncc(Br)c(Nc5ccc6c(c5P(C)(C)=O)OCCO6)n4)cc3C)CC2)C1 | first-in-human trial | human | oral, 30 mg once daily | any treatment-related | adverse events | 100% |
| COc1ccc([C@@H]2CC(=O)c3c(O)cc(O[C@@H]4O[C@H](CO)[C@@H](O)[C@H](O)[C@H]4O[C@@H]4O[C@@H](C)[C@H](O)[C@@H](O)[C@H]4O)cc3O2)cc1O |  | Sprague-Dawley rat, male, obese, plasma | oral, 100 mg/kg |  | Cmax | 3.72 ± 1.16 ng/mL |
| CCCCN1C(=O)c2cccc3c(NCCCCN4CCOCC4)ccc(c23)C1=O |  | acetonitrile |  |  | molar extinction coefficient | 8600 M⁻¹ cm⁻¹ |
| C=CC(=O)Nc1cc(Nc2nccc(-c3cn(C)c4ccccc34)n2)c(OC)cc1N(C)CCNC | storage stability | human dried blood spots | 72 h, -80 °C, LLOQ level |  | recovery | 92.3% |
| O=C(Nc1cnccc1-c1ccc([18F])nc1)c1ccnc(NC(=O)C2CC2)c1 |  | mice, transgenic, GSK-3β, early-stage, small intestine | intravenous, dose not given, 120 min |  | SUV | 1.63 |
| CCCCN1C(=O)c2cccc3c(NCCCCCCCCN4CCOCC4)ccc(c23)C1=O |  | toluene |  |  | molar extinction coefficient | 10900 M⁻¹ cm⁻¹ |
| CC1(C)C(/C=C/C2=C(Cl)C(=C/C=C3/N(CCCCCC(=O)O)c4ccccc4C3(C)C)/C[N+](C)(C)C2)=[N+](CCCCCC(=O)O)c2ccccc21 |  | water |  |  | molar absorption coefficient | 152000 M⁻¹ cm⁻¹ |

Repeated from above:
| SMILES | test | test system | setting | scale | endpoint | value |
| --- | --- | --- | --- | --- | --- | --- |
| CCCCN1C(=O)c2cccc3c(NCCCCN4CCOCC4)ccc(c23)C1=O |  | acetonitrile |  |  | molar extinction coefficient | 8600 M⁻¹ cm⁻¹ |
| C=CC(=O)Nc1cc(Nc2nccc(-c3cn(C)c4ccccc34)n2)c(OC)cc1N(C)CCNC | storage stability | human dried blood spots | 72 h, -80 °C, LLOQ level |  | recovery | 92.3% |
| O=C(Nc1cnccc1-c1ccc([18F])nc1)c1ccnc(NC(=O)C2CC2)c1 |  | mice, transgenic, GSK-3β, early-stage, small intestine | intravenous, dose not given, 120 min |  | SUV | 1.63 |
